{"data": "Published values gathered from unrelated publications", "note": "Numbered parts are unrelated; each lists some results of a single study. Several values in a cell are separate wells, animals, samples, runs or records.", "sequence of UniProt P27448 (whole entry, looked up)": "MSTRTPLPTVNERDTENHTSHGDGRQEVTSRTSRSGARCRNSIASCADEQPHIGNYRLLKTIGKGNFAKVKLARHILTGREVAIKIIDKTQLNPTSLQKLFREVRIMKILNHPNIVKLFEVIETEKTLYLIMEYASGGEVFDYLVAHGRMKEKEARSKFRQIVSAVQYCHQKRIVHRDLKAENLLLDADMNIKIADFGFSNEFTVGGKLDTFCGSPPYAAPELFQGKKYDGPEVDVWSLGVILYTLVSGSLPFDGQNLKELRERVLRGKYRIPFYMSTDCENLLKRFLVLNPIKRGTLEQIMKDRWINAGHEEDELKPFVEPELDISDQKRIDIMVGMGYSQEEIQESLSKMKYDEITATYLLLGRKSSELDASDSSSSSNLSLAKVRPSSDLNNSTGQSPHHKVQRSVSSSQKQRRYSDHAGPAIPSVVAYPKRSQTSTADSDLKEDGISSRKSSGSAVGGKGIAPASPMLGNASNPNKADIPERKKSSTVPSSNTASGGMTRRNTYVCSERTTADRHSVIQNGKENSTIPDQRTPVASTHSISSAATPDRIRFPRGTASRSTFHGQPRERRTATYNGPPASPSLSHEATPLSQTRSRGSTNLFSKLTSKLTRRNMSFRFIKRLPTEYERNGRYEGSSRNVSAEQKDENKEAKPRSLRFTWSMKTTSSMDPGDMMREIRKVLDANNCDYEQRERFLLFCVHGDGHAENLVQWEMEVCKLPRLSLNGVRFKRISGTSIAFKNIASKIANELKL", "sequence of UniProt Q16620 (whole entry, looked up)": "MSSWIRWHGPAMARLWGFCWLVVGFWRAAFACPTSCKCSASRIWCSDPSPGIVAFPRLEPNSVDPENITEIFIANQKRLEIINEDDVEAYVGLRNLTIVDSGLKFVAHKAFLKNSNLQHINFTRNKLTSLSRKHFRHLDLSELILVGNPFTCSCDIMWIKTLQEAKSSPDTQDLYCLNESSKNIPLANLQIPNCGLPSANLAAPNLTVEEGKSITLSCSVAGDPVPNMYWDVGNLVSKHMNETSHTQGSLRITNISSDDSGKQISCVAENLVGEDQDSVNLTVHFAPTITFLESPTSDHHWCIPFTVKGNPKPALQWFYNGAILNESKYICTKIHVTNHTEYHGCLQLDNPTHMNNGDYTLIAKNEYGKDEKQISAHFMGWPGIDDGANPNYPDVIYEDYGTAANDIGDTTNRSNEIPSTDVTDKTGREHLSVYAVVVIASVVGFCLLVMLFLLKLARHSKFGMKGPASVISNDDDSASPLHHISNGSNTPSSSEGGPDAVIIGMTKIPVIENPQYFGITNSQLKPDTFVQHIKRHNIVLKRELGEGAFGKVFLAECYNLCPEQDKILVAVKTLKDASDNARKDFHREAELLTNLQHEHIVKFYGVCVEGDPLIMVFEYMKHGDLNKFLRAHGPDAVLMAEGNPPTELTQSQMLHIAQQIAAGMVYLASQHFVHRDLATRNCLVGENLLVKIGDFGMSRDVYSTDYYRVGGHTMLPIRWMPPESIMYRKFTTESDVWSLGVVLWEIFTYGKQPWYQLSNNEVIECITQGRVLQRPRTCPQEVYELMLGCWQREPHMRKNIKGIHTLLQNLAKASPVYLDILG", "sequence of UniProt Q9Y6M4 (whole entry, looked up)": "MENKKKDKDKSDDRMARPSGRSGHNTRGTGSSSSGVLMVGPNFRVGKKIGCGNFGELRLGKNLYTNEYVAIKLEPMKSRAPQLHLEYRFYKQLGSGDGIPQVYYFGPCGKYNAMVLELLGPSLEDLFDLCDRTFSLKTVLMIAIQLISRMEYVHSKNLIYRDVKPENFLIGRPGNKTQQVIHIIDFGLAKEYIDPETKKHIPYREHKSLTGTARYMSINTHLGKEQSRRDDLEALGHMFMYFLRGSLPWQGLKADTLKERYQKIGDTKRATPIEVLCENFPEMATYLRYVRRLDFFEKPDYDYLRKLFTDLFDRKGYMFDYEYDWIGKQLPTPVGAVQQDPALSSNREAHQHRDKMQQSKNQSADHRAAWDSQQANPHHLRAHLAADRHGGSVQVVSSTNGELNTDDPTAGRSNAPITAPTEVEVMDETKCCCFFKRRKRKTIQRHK", "sequence of UniProt P30530 (whole entry, looked up)": "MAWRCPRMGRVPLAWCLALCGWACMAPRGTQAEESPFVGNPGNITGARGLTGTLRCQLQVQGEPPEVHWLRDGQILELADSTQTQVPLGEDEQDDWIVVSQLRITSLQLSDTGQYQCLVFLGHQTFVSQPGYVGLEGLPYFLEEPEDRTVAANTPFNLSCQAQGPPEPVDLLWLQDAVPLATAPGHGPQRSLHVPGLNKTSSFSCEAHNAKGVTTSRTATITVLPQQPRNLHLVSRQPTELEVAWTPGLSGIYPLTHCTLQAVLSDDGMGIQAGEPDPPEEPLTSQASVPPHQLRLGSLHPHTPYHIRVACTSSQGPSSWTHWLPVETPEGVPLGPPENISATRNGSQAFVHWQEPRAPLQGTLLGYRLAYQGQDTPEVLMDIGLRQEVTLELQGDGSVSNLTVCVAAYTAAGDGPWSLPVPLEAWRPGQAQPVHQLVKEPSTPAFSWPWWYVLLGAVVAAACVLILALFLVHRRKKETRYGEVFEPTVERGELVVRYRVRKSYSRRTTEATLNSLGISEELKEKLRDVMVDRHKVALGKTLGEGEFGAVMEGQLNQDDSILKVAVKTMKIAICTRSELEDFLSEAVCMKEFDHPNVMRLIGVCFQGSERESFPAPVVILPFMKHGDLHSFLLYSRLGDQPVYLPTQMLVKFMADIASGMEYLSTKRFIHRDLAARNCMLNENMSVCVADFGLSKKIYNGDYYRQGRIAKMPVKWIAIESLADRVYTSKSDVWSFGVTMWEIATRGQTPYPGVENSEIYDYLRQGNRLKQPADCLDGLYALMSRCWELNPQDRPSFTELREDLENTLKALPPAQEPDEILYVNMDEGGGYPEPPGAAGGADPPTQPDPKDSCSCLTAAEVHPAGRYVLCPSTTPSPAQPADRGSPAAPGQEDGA"}
{"data": "Series 1", "cell line": "L444P/L444P Gaucher fibroblasts", "technique": "4-MUG hydrolysis in lysate", "concentration": "10 µM", "time": "72 h", "relative to": "vehicle"}
{"SMILES": "Ic1ccc(Nc2nc(NCCc3c[nH]c4ccccc34)nc(N3CCOCC3)n2)cc1", "enzyme activity": "5.15% and 59.5% and 37.2% and 8.77% and 42.1% and -1.46% and 59.2% and 65.6%"}
{"SMILES": "CCOc1ccc2nc(Sc3nc(N4CCOCC4)nc(N4CCOCC4)n3)sc2c1", "enzyme activity": "111%"}
{"SMILES": "Ic1ccc(Nc2nc(NCCN3CCOCC3)nc(N3CC4CCC(C3)O4)n2)cc1", "enzyme activity": "120%"}
{"SMILES": "CCOc1ccc2nc(Sc3nc(Nc4ccc(OC)cc4)nc(N4CCOCC4)n3)sc2c1", "enzyme activity": "225%"}
{"SMILES": "Ic1ccc(Nc2nc(NCCc3c[nH]c4ccccc34)nc(NCCN3CCOCC3)n2)cc1", "enzyme activity": "99%"}
{"SMILES": "Cc1ccc(Nc2nc(NCCN3CCOCC3)nc(N3CCOCC3)n2)cc1", "enzyme activity": "155%"}
{"SMILES": "CCN(CC)c1nc(NCCN2CCOCC2)nc(Nc2ccc(I)cc2)n1", "enzyme activity": "70%"}
{"SMILES": "COc1ccc(Nc2nc(NCCN3CCOCC3)nc(N3CCOCC3)n2)cc1", "enzyme activity": "107%"}
{"data": "Series 2", "Structure (SMILES)": "Cn1cc(-c2cccc(CN3CCC4(CC3)COc3c4ccc4c3CN([C@H]3CCC(=O)NC3=O)C4=O)c2)cn1", "mode": "degrader", "CRBN/Zinc finger protein Helios": "CRBN/Zinc finger protein Helios (Homo sapiens, UniProt Q96SW2+Q9UKS7)", "Ikzf2/Crbn I391V": "Ikzf2/Crbn (Mus musculus, UniProt P81183+Q8C7D2, I391V)", "sequence of UniProt Q8C7D2 (whole entry, unmodified, looked up)": "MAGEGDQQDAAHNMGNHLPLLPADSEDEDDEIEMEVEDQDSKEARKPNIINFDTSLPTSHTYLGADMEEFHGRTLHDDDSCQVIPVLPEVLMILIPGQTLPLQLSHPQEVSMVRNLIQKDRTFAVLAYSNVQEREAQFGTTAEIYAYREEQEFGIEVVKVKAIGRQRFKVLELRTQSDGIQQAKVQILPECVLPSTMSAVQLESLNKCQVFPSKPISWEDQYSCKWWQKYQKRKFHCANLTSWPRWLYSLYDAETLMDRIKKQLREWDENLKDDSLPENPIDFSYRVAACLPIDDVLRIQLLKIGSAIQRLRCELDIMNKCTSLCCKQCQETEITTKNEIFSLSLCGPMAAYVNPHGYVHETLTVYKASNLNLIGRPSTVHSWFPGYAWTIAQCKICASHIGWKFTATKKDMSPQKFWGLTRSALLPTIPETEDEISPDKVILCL", "sequence of UniProt Q9UKS7 (whole entry, looked up)": "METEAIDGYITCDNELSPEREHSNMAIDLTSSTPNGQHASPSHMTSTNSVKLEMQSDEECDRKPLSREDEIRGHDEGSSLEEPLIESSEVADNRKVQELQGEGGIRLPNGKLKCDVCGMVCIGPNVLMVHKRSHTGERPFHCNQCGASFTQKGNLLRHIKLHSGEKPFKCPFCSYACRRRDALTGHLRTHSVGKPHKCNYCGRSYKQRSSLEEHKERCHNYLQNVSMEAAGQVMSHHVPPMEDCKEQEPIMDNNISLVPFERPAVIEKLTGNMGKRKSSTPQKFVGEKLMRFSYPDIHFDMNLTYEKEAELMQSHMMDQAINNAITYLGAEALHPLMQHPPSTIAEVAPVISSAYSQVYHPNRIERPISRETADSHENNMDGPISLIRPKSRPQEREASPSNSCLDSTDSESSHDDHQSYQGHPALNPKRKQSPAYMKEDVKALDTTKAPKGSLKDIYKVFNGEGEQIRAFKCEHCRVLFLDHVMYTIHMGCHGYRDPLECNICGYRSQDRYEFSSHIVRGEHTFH", "sequence of UniProt P81183 (whole entry, unmodified, looked up)": "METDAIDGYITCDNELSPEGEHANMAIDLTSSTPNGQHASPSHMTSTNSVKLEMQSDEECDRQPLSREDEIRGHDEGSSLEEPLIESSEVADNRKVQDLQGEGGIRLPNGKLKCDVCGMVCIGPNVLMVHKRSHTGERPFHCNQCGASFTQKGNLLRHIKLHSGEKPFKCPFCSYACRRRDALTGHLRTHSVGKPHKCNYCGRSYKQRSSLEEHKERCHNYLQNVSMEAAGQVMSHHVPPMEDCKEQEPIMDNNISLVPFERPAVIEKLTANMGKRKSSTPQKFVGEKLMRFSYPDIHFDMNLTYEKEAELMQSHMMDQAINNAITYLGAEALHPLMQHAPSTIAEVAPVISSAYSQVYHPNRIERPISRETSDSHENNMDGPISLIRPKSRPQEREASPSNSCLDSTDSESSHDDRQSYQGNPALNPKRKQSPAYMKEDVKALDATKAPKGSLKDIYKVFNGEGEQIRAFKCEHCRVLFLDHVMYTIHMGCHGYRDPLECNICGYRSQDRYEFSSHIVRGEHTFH", "sequence of UniProt Q96SW2 (whole entry, looked up)": "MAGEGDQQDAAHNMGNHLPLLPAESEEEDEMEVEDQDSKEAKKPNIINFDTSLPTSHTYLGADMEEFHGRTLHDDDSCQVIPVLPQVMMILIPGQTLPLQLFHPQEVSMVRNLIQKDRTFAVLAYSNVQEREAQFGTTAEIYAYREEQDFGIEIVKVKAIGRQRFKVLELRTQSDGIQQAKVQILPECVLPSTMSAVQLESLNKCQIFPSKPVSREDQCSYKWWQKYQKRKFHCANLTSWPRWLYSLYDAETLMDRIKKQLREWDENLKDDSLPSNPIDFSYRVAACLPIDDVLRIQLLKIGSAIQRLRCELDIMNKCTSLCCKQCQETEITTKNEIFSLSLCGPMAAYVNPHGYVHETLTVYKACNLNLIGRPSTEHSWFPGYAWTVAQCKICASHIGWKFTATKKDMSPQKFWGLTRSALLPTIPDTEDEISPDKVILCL"}
{"target": "CRBN/Zinc finger protein Helios", "test": "HiBiT", "system": "HEK293", "conditions": "0.05081 nM, 1 h", "protein remaining": "95.5% and 88.7%"}
{"target": "CRBN/Zinc finger protein Helios", "test": "HiBiT", "system": "HEK293", "conditions": "0.01694 nM, 1 h", "protein remaining": "93.2% and 82.7%"}
{"target": "CRBN/Zinc finger protein Helios", "test": "HiBiT", "system": "HEK293", "conditions": "0.01694 nM", "protein remaining": "105% and 103%"}
{"target": "CRBN/Zinc finger protein Helios", "test": "HiBiT", "system": "HEK293", "conditions": "37.04 nM, 6 h", "protein remaining": "15.5% and 9.2%"}
{"target": "Ikzf2/Crbn I391V", "system": "Crbn I391V mouse, spleen", "conditions": "30 mg/kg, 6 h", "protein remaining": "17% and 12% and 16%"}
{"target": "Ikzf2/Crbn I391V", "system": "Crbn I391V mouse, thymus", "conditions": "10 mg/kg, 24 h", "protein remaining": "72% and 52% and 60%"}
{"target": "CRBN/Zinc finger protein Helios", "test": "HiBiT", "system": "HEK293", "conditions": "12.35 nM, 6 h", "protein remaining": "19.1% and 22.3%"}
{"target": "CRBN/Zinc finger protein Helios", "test": "HiBiT", "system": "HEK293", "conditions": "0.05081 nM, 6 h", "protein remaining": "88.2% and 88.4%"}
{"target": "CRBN/Zinc finger protein Helios", "test": "HiBiT", "system": "HEK293", "conditions": "0.4572 nM", "protein remaining": "52.8% and 74.9%"}
{"target": "CRBN/Zinc finger protein Helios", "test": "HiBiT", "system": "HEK293", "conditions": "4.115 nM, 6 h", "protein remaining": "24.8% and 22.7%"}
{"target": "CRBN/Zinc finger protein Helios", "test": "HiBiT", "system": "HEK293", "conditions": "0.01694 nM, 3 h", "protein remaining": "97.5% and 97%"}
{"data": "Series 3", "SMILES": "CNc1ncc2cc(-c3cc(OC)cc(OC)c3Cl)c(=O)n(CCc3ccc(NC(=O)C(C#N)=CC(C)(C)N4CCOCC4)cc3)c2n1", "effect on": "kinase activity"}
{"target": "EIF2AK3 (Homo sapiens, UniProt Q9NZJ5)", "concentration": "1 µM", "inhibition [%]": 72}
{"target": "MARK3 (Homo sapiens, UniProt P27448)", "concentration": "0.1 µM", "inhibition [%]": 12}
{"target": "PRKG1 (Homo sapiens, UniProt Q13976)", "concentration": "0.1 µM", "inhibition [%]": 1}
{"target": "EGFR (Homo sapiens, UniProt P00533)", "concentration": "0.1 µM", "inhibition [%]": 2}
{"target": "AXL (Homo sapiens, UniProt P30530)", "concentration": "0.1 µM", "inhibition [%]": 0}
{"target": "CSNK1G3 (Homo sapiens, UniProt Q9Y6M4)", "concentration": "0.1 µM", "inhibition [%]": 1}
{"target": "PRKAA2 (Homo sapiens, UniProt P54646)", "concentration": "0.1 µM", "inhibition [%]": -1}
{"target": "NTRK2 (Homo sapiens, UniProt Q16620)", "concentration": "0.1 µM", "inhibition [%]": 0}
{"data": "Other studies, line by line"}
{"SMILES": "C=CCN1C(=O)C(O)(C(=O)O)Oc2cc(F)ccc21 (stereo not shown)", "organism": "Arabidopsis thaliana", "test": "hypocotyl length", "system": "Col-0", "conditions": "100 µg/mL, 7 days, seed germination, dark", "quantity": "inhibition", "result": "35.6%"}
{"note": "For quick reference, copied from above (series 1):"}
{"SMILES": "Ic1ccc(Nc2nc(NCCc3c[nH]c4ccccc34)nc(NCCN3CCOCC3)n2)cc1", "enzyme activity": "99%"}
{"SMILES": "Cc1ccc(Nc2nc(NCCN3CCOCC3)nc(N3CCOCC3)n2)cc1", "enzyme activity": "155%"}
{"SMILES": "CCN(CC)c1nc(NCCN2CCOCC2)nc(Nc2ccc(I)cc2)n1", "enzyme activity": "70%"}
{"SMILES": "CCOc1ccc2nc(Sc3nc(Nc4ccc(OC)cc4)nc(N4CCOCC4)n3)sc2c1", "enzyme activity": "225%"}
